Measured values from different studies.
Each line is one published result; not all experiments were run side by side. ± gives the spread as reported.
Cell line: MCF7

SMILES = COc1ccc(C2CC(=O)c3c(cc(O)c(CC=C(C)C)c3O)O2)cc1 (stereo not drawn); assay = cytotoxicity, MTT; conditions = 48 h, from log IC50; IC50 = 109 µM
SMILES = Cc1nc(Nc2ccc3c(c2)/C(=C/c2ccccc2Cl)C(=O)N3C)c2ccccc2n1; assay = cell growth or viability, MTT; IC50 = 6.91 µM
SMILES = CCC(=CCc1c(O)cc2c(c1O)C(=O)CC(c1ccc(OC)c(O)c1)O2)CC (stereo not drawn); assay = cytotoxicity, MTT; conditions = 48 h, as reported; IC50 = 18.3 ± 1.2 µM
SMILES = Cc1c(COc2cc(OCc3cccc(C#N)c3)c(CN3CCCC[C@@H]3C(=O)O)cc2Cl)cccc1-c1cccc(OCCCCCCC(=O)NO)c1; assay = cell growth or viability, CCK-8; conditions = 48 h; IC50 = 19.3 µM
SMILES = Clc1ccnc2c1ccc1c(Cl)ccnc12.[Co+2].[O-]c1c(I)cc(I)c2cccnc12.[O-]c1c(I)cc(I)c2cccnc12; assay = cell growth or viability, MTT; conditions = 48 h; IC50 = 26 µM
SMILES = Nc1ncc(-c2nc(N3CCOCC3)nc(N3CCN(C(=O)CCC(=O)NCCCCCCCCCNc4cccc5c4C(=O)N(C4CCC(=O)NC4=O)C5=O)CC3)n2)c(C(F)F)n1 (stereo not drawn); assay = inhibitor, In-Cell Western, refers to: Akt pSer473; conditions = 2 h; IC50 = 0.0375 µM
SMILES = [Co+2].[O-]c1c(I)cc(I)c2cccnc12.[O-]c1c(I)cc(I)c2cccnc12.c1cnc2c(c1)ccc1cccnc12; assay = cell growth or viability, MTT; conditions = 48 h; IC50 = 27 µM
SMILES = O=C1C(Nc2ccc(Cl)cc2)c2ccccc2N1Cc1ccccc1 (stereo not drawn); assay = cell growth or viability, MTT; conditions = 48 h; IC50 = 39.8 µM
SMILES = Clc1ccc(C(Cn2cnc3ccccc32)OCc2ccc3ccccc3c2)c(Cl)c1 (stereo not drawn); assay = cell growth or viability, MTT; conditions = 24 h; IC50 = 37.1 µM
SMILES = COc1cccc(N2C(=O)CS/C2=N\N=C\c2cccc3cc4ccccc4nc23)c1; assay = cell growth or viability, MTT; conditions = 48 h; IC50 = > 50 µM
SMILES = COc1ccc(CNC[C@@](O)(COCc2ccccc2)[C@@H]2CC[C@@H](C)C[C@H]2OCc2ccccc2)cc1; assay = cell growth or viability, MTT; conditions = 72 h; IC50 = 2.12 µM
SMILES = Nc1ncc(-c2nc(N3CCOCC3)nc(N3CCN(C(=O)CCC(=O)N4CCN(CCCCCCNc5cccc6c5C(=O)N(C5CCC(=O)NC5=O)C6=O)CC4)CC3)n2)c(C(F)F)n1 (stereo not drawn); assay = inhibitor, In-Cell Western, refers to: Akt pSer473; conditions = 2 h; IC50 = 0.0118 µM
SMILES = CCNC(NN=Cc1ccc([N+](=O)[O-])o1)=[S+][Au-][Cl]; assay = cell growth or viability, resazurin; IC50 = 35.1 µM
SMILES = O=C1CS/C(=N\N=C\c2cccc3cc4ccccc4nc23)N1c1ccc([N+](=O)[O-])cc1; assay = cell growth or viability, MTT; conditions = 48 h; IC50 = > 50 µM
SMILES = CN1CCC(N[C@@H]2CCc3[nH]c4c(C(N)=O)ccc(-c5ccccc5Cl)c4c3C2)CC1; assay = cell growth or viability; IC50 = 0.0183 µM
SMILES = CCOC(=O)/C=C1\S/C(=N\N=C\c2cccc3cc4ccccc4nc23)N(c2ccc(OC)cc2)C1=O; assay = cell growth or viability, MTT; conditions = 48 h; IC50 = > 50 µM
SMILES = Nc1cc2cccnc2c2ncccc12.[Cl-].[Cl-].[Ru+2].c1cnc2c(c1)ccc1cccnc12.c1cnc2c(c1)ccc1cccnc12; assay = cell viability, MTT; conditions = 1 h preincubation, then 48 h, added: blue light; IC50 = 56.8 ± 1.22 µM
SMILES = CCCCN(CCCC)CC(=O)N1CCN(CC(OCc2ccc3ccccc3c2)c2ccc(Cl)cc2Cl)CC1 (stereo not drawn); assay = cell growth or viability, MTT; conditions = 24 h; IC50 = > 50 µM
SMILES = C[C@@H]1CC[C@@H]([C@@](O)(COCc2ccccc2)Cn2cnc3ccccc32)[C@H](OCc2ccccc2)C1; assay = cell growth or viability, MTT; conditions = 72 h; IC50 = 7.45 µM
SMILES = O=C(c1ccccc1)N1CCN(CC(OCc2ccc3ccccc3c2)c2ccc(Cl)cc2Cl)CC1 (stereo not drawn); assay = cell growth or viability, MTT; conditions = 24 h; IC50 = > 50 µM
SMILES = Cc1ccc(-c2ccc(C)cn2)nc1; assay = cell growth or viability, MTT; conditions = 48 h; IC50 = > 50 µM
SMILES = Cc1nc(Nc2ccc3c(c2)/C(=C/c2c[nH]c4ccccc24)C(=O)N3)c2ccccc2n1; assay = cell growth or viability, MTT; IC50 = 0.44 µM
SMILES = Cc1ccnc(-c2cc(C(=O)O)ccn2)c1.F[P-](F)(F)(F)(F)F.F[P-](F)(F)(F)(F)F.[Ru+2].c1ccc(-c2ccccn2)nc1.c1ccc(-c2ccccn2)nc1; assay = cell viability; conditions = 48 h, dark; IC50 = > 100 µM
SMILES = O=C1Nc2ccccc2/C1=N/c1ccc(Cl)cc1Br; assay = cell growth or viability, MTT; conditions = 48 h; IC50 = 1.61 µM
SMILES = COc1ccccc1/C=C1\C(=O)Nc2ccc(Nc3nc(C)nc4ccccc34)cc21; assay = cell growth or viability, MTT; IC50 = 6.63 µM
SMILES = Cc1ccc2c(Br)cc(Br)c([O-])c2n1.Cc1ccc2c(Br)cc(Br)c([O-])c2n1.[Co+2].c1cnc2c(c1)ccc1cccnc12; assay = cell growth or viability, MTT; conditions = 48 h; IC50 = 10 µM
SMILES = CN1C(=O)/C(=N\c2ccc(Cl)cc2Br)c2ccccc21; assay = cell growth or viability, MTT; conditions = 48 h; IC50 = 30.4 µM
SMILES = COc1ccnc(-c2cc(OC)ccn2)c1.Cc1ccc2c(Cl)cc(Cl)c([O-])c2n1.Cc1ccc2c(Cl)cc(Cl)c([O-])c2n1.[Co+2]; assay = cell growth or viability, MTT; conditions = 48 h; IC50 = 9.01 µM
SMILES = NC(=O)c1ccc(-c2ccccc2Cl)c2c3c([nH]c12)CCC(N)C3 (stereo not drawn); assay = cell growth or viability; conditions = 96 h; IC50 = 0.0261 µM
SMILES = CN1CCN(CC(=O)N2CCN(CC(OCc3ccc4ccccc4c3)c3ccc(Cl)cc3Cl)CC2)CC1 (stereo not drawn); assay = cell growth or viability, MTT; conditions = 24 h; IC50 = 7.13 µM
SMILES = Nc1ncc(-c2nc(N3CCOCC3)nc(N3CCN(C(=O)CCC(=O)NCCCCCCCCCCNc4cccc5c4C(=O)N(C4CCC(=O)NC4=O)C5=O)CC3)n2)c(C(F)F)n1 (stereo not drawn); assay = inhibitor, In-Cell Western, refers to: Akt pSer473; conditions = 2 h; IC50 = 0.042 µM
SMILES = CC(=O)[O][Pd][c]1ccccc1-n1nc(C)cc1C.CC(=O)[O][Pd][c]1ccccc1-n1nc(C)cc1C; assay = cell growth or viability, MTT; IC50 = 16.8 µM
SMILES = CC(C)OC(=O)[C@H](CO)NCc1cc(Cl)c(OCc2cccc(-c3ccccc3)c2Br)cc1OCc1cccnc1; assay = cell growth or viability, MTT; IC50 = > 10 µM
SMILES = Cc1c(COc2cc(OCc3cccc(C#N)c3)c(CN3CCCC[C@@H]3C(=O)O)cc2Cl)cccc1-c1cccc(OCCCCCC(=O)NO)c1; assay = cell growth or viability, CCK-8; conditions = 48 h; IC50 = > 20 µM
SMILES = COc1ccc(CN2C3(NC(c4ccc(OC)cc4)C24C(=O)Nc2ccccc24)C(=O)Nc2ccccc23)cc1 (stereo not drawn); assay = cell growth or viability, MTT; conditions = 48 h; IC50 = 61.4 µM
SMILES = Nc1ncc(-c2nc(N3CCOCC3)nc(N3CCN(C(=O)CCC(=O)NCCCCCCCCC#Cc4cccc5c4C(=O)N(C4CCC(=O)NC4=O)C5=O)CC3)n2)c(C(F)F)n1 (stereo not drawn); assay = inhibitor, In-Cell Western, refers to: Akt pSer473; conditions = 2 h; IC50 = 0.0312 µM
SMILES = O=C(c1ccccc1Cl)N1CCN(CC(OCc2ccc3ccccc3c2)c2ccc(Cl)cc2Cl)CC1 (stereo not drawn); assay = cell growth or viability, MTT; conditions = 24 h; IC50 = > 50 µM
SMILES = FC(F)(F)C1(c2ccc(CN3CCN(C(c4ccccc4)c4ccc(Cl)cc4)CC3)cc2)CCC1 (stereo not drawn); assay = cell growth; conditions = 72 h; IC50 = 102 ± 13.4 µM
SMILES = CCC(=CCc1c(O)cc2c(c1O)C(=O)CC(c1ccc(O)cc1)O2)CC (stereo not drawn); assay = cell growth or viability, MTT; conditions = 48 h; IC50 = 20.6 µM
SMILES = Cc1c(COc2cc(OCc3cccc(C#N)c3)c(CNC(C)(CO)CO)cc2Cl)cccc1-c1cccc(OCCCCCC(=O)NO)c1; assay = cell growth or viability, CCK-8; conditions = 48 h; IC50 = > 20 µM
SMILES = CNC(=S)NN=Cc1ccc([N+](=O)[O-])o1; assay = cell growth or viability, resazurin; IC50 = 30.1 µM
SMILES = Cc1cc2c(F)c(OS(=O)(=O)Oc3ccc4c(c3)CC[C@@H]3[C@@H]4CC[C@]4(C)C(=O)CC[C@@H]34)ccc2[nH]1; conditions = 72 h; IC50 = 6.6 µM
SMILES = O=C(c1ccc([N+](=O)[O-])cc1)N1CCN(CC(OCc2ccc3ccccc3c2)c2ccc(Cl)cc2Cl)CC1 (stereo not drawn); assay = cell growth or viability, MTT; conditions = 24 h; IC50 = 42.8 µM
SMILES = CCOC(=O)/C=C1\S/C(=N\N=C\c2cccc3cc4ccccc4nc23)N(CC(C)C)C1=O; assay = cell growth or viability, MTT; conditions = 48 h; IC50 = > 50 µM
SMILES = COc1ccc(C(=O)N2CCN(CC(OCc3ccc4ccccc4c3)c3ccc(Cl)cc3Cl)CC2)cc1 (stereo not drawn); assay = cell growth or viability, MTT; conditions = 24 h; IC50 = 42.1 µM
SMILES = C[n+]1c(/C=C/c2ccc(N(c3ccccc3)c3ccccc3)cc2)cc(/C=C2\Sc3ccccc3N2CCCN2CCCC2)c2ccccc21; assay = cell growth or viability, MTT; conditions = 36 h; IC50 = 5.72 µM
SMILES = C[C@@H]1CC[C@@H]([C@@](O)(CNCc2ccccc2F)COCc2ccccc2)[C@H](OCc2ccccc2)C1; assay = cell growth or viability, MTT; conditions = 72 h; IC50 = 5.07 µM
SMILES = O=C1/C(=N\c2ccc(Cl)cc2)c2ccccc2N1Cc1ccccc1; assay = cell growth or viability, MTT; conditions = 48 h; IC50 = 11.1 µM
